# Measured values gathered from unrelated publications.
# Protocols differ between the studies behind these lines.
# HDAC6: Protein deacetylase HDAC6 (HDAC6, Homo sapiens, UniProt Q9UBN7)
# Chain of UniProt Q9UBN7 (whole entry, looked up): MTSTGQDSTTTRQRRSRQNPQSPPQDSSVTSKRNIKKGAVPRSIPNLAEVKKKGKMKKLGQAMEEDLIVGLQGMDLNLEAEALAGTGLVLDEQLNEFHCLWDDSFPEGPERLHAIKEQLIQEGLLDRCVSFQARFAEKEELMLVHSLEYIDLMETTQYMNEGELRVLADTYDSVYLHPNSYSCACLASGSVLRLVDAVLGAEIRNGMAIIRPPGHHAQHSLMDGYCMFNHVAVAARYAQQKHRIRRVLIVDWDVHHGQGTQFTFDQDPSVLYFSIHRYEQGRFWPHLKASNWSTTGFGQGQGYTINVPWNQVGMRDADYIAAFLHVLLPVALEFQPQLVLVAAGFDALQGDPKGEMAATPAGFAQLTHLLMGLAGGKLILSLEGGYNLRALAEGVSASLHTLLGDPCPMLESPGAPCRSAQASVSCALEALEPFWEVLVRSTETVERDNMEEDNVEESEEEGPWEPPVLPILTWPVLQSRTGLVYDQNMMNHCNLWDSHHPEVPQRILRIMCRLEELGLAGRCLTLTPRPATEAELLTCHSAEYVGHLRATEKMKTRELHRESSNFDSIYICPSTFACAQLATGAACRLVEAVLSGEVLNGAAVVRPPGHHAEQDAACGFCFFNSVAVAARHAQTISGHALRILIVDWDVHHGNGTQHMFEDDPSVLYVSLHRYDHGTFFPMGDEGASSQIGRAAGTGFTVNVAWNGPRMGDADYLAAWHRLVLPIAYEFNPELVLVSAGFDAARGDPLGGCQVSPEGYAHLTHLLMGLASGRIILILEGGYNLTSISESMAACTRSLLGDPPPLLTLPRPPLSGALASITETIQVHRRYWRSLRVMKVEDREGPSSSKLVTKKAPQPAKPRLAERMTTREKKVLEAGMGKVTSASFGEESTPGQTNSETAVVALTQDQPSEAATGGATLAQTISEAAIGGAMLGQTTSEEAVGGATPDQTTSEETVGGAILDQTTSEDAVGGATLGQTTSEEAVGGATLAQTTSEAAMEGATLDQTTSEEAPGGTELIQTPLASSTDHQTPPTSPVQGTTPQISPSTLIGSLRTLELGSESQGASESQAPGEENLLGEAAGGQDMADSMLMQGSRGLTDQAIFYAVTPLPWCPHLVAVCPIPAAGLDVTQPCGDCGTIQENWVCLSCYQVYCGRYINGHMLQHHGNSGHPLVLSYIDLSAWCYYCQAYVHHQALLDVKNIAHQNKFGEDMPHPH
# DRD3: D(3) dopamine receptor (DRD3, Homo sapiens, UniProt P35462)
# Chain of UniProt P35462 (whole entry, looked up): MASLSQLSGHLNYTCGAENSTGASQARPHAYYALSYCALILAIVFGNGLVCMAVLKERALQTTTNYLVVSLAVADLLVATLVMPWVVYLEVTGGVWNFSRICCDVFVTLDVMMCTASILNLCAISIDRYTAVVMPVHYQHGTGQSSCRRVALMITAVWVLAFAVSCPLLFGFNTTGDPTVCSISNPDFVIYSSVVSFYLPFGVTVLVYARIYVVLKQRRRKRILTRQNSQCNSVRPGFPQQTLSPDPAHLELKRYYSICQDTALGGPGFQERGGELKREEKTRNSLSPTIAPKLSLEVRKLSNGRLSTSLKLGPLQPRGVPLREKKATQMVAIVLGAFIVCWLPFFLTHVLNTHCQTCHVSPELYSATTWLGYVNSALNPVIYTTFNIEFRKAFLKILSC
# ADRA2B: Alpha-2B adrenergic receptor (ADRA2B, Homo sapiens, UniProt P18089)
# Chain of UniProt P18089 (whole entry, looked up): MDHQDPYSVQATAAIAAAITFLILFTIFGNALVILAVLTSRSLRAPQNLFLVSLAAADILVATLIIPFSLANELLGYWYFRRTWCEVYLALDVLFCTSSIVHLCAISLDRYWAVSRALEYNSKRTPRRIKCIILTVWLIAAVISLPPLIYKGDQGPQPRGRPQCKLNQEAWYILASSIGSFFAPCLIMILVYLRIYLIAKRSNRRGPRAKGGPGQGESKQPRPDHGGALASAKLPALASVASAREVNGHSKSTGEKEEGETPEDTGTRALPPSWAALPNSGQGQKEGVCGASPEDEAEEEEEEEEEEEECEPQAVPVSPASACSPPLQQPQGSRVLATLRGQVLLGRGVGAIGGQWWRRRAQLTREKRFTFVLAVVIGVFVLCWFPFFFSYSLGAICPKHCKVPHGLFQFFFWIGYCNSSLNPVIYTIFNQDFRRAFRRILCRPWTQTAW
# Chain of UniProt Q9BY41 (whole entry, looked up): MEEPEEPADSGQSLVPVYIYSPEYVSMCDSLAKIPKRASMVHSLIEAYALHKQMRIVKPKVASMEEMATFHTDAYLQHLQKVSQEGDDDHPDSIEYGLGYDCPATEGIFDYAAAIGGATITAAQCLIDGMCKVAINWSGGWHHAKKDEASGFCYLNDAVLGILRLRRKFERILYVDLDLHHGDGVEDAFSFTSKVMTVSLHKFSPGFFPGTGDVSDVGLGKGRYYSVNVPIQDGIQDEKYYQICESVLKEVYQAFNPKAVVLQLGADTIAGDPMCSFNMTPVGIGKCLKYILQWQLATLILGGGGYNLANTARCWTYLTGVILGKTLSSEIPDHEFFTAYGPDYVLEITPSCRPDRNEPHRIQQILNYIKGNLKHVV
# Chain of UniProt Q07002 (whole entry, looked up): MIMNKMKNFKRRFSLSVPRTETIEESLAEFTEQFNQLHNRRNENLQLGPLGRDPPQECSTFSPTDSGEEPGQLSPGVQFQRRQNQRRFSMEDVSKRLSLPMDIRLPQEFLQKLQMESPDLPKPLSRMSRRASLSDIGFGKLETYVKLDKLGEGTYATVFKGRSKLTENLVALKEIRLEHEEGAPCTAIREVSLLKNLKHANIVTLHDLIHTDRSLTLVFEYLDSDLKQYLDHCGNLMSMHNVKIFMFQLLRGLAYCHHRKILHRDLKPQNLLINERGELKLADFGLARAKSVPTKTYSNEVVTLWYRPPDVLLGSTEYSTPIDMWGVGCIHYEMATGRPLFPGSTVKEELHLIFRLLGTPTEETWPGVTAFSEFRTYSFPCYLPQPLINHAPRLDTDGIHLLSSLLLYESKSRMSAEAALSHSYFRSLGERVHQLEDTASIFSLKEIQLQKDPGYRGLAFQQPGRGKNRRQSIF
# Chain of UniProt P0DMS8 (whole entry, unmodified, looked up): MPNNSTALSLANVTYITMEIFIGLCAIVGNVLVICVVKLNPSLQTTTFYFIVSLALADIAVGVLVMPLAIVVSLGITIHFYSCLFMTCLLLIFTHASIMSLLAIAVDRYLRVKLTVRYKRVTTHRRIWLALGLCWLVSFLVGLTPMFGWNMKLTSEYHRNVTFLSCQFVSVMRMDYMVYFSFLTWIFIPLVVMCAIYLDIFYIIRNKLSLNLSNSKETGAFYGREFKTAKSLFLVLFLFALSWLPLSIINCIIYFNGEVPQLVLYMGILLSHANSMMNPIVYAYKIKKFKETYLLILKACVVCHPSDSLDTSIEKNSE
SMILES,target,assay,setting,endpoint,result
O=C(NO)c1cncc(OS(=O)(=O)Oc2ccc3ccccc3c2)c1,HDAC6,"enzyme activity, inhibitor, fluorescence",,IC50,30 nM
CCCCC(=O)Nc1ccc(-c2ccc3ncn(CCC)c(=O)c3c2)cn1,"Epidermal growth factor receptor (EGFR, Homo sapiens, UniProt P00533, L858R/T790M)","binding, competition with immobilised ligand",0.5 µM,remaining binding,85%
Cc1[nH]c(C)c(S(=O)(=O)Nc2ccc(Cl)c(Cl)c2)c1C(=O)N1CCC(F)(F)C1,DRD3,"G protein activation, antagonist, BRET",,IC50,2300 nM
Cc1cc(C)c(OS(=O)(=O)Oc2cccc(C(=O)NO)c2)c(C)c1,HDAC6,"enzyme activity, inhibitor, fluorescence",,IC50,557 nM
Cc1cc(Oc2ncccc2CN2CCN(c3ccc(C(F)(F)F)cn3)CC2)ccc1-c1c(C)c(=O)[nH]c(=O)n1C,ADRA2B,"ligand displacement, radioligand",,Ki,3070 nM
CNc1ncc2c(/C=C/C(=O)N3CCC(OC)CC3)nn(Cc3cccc(C(F)(F)F)c3)c2n1,"Serine/threonine-protein kinase pim-3 (PIM3, Homo sapiens, UniProt Q86V86)","enzyme activity, inhibitor, radiometric",1 µM,remaining activity,88%
Cc1cc(Oc2ncccc2CN2CCN(c3ccc([N+](=O)[O-])cc3Cl)CC2)ccc1-c1c(C)c(=O)[nH]c(=O)n1C,ADRA2B,"ligand displacement, radioligand",,Ki,2320 nM
O=C(NO)c1cc(F)cc(OS(=O)(=O)Oc2ccc(-n3ccnc3)cc2)c1,"Histone deacetylase 8 (HDAC8, Homo sapiens, UniProt Q9BY41)","enzyme activity, inhibitor, fluorescence",,IC50,706 nM
C=CC(=O)N1CCC(COCC(=O)N2CCN(c3nc(-c4cnc(N)nc4C(F)F)nc(N4CCOC[C@@H]4C)n3)CC2)CC1,"Cyclin-dependent kinase 18 (CDK18, Homo sapiens, UniProt Q07002)","binding, competition with immobilised ligand",1 µM,remaining binding,91%
Cc1[nH]c(C)c(S(=O)(=O)Nc2ccc(C(F)(F)F)c(Cl)c2)c1C(=O)N1CCC(C#N)C1 (stereo not shown),DRD3,"β-arrestin recruitment, antagonist",,IC50,15000 nM
CN(C)c1ncnc2c1ncn2[C@@H]1O[C@H](CO)[C@@H](O)[C@H]1O,"Adenosine receptor A3 (ADORA3, Homo sapiens, UniProt P0DMS8, M174L)","G protein activation, agonist",,EC50,5400 nM
Cc1[nH]c(C)c(S(=O)(=O)Nc2cc(Cl)cc(C(F)(F)F)c2)c1C(=O)N1CCC(F)(F)C1,DRD3,"G protein activation, antagonist, BRET",,IC50,12000 nM
COc1cc(-c2cncc3c2CN(C)Cc2cc(N4CCNCC4)ccc2-3)cc(OC)c1OC,"Serine/threonine-protein kinase MRCK alpha (CDC42BPA, Homo sapiens, UniProt Q5VT25)","enzyme activity, inhibitor",1 µM,remaining activity,108%

# A few entries again:
SMILES,target,assay,setting,endpoint,result
Cc1[nH]c(C)c(S(=O)(=O)Nc2ccc(Cl)c(Cl)c2)c1C(=O)N1CCC(F)(F)C1,DRD3,"G protein activation, antagonist, BRET",,IC50,2300 nM
